# Results of several laboratories.
# A part holds a random share of what one study measured. Changes are numbered by the printed parent chain.
# Chain of UniProt O00506 (whole entry, looked up): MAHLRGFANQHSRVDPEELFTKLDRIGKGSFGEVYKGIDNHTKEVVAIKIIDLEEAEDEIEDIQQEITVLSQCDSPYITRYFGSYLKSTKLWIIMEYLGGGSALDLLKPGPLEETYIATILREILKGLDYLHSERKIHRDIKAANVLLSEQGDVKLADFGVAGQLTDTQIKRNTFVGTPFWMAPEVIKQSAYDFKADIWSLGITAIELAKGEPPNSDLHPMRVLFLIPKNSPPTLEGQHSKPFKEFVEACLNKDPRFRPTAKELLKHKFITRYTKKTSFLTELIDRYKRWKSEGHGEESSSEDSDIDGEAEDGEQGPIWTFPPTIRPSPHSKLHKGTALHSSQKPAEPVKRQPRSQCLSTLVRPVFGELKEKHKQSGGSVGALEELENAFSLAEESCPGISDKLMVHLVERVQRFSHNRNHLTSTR

# Set 1 — target: OGT, full length, His-tagged (human); technique: phage display, sequencing; matrix: in vitro; tested at: 1 µg OGT; reference: input library; reading: higher = stronger binding; starting sequence: peptide; VAYPNSYMPKYQIST
# Notes: single substitutions, 15-mer displayed peptide, unchanged parent 6.14
Change,fold enrichment
HAYPNSYMPKYQIST [V1H],9.38 fold
VAYLNSYMPKYQIST [P4L],7.68 fold
VAYPNSYMQKYQIST [P9Q],0.858 fold
VAYPNSYMPKYQISW [T15W],12.7 fold
VAYPLSYMPKYQIST [N5L],4.95 fold
VAYPNSYMPKYQHST [I13H],0.906 fold
VAYPNSYMPKYFIST [Q12F],1 fold
YAYPNSYMPKYQIST [V1Y],6.49 fold

# Set 2 — target: CREB3, bZIP domain (human); technique: DHFR protein complementation; matrix: yeast; reference: wild-type JUN-FOS pair; reading: higher = stronger binding
# Notes: single substitutions, most at no-binding floor
# Starting sequence: JUN, bZIP domain (human); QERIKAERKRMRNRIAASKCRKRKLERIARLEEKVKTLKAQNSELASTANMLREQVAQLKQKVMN; partner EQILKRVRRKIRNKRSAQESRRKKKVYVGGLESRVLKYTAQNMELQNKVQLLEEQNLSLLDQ
Change,binding fitness [natural log]
V35S,-1.5
A46Y,-1.48
E44G,-1.48
K34S,-1.51
L45Y,-1.57
L45I,-1.56
R53M,-1.43
K36H,-1.39

# Single results of other studies
Molecule,tested on,assay,system,conditions,scale,quantity,value
OCC(O)CCON=C1C(c2c(O)[nH]c3ccccc23)=Nc2ccccc21 (stereo not drawn),"STK25 (Homo sapiens, UniProt O00506)","enzyme activity, inhibitor",,0.5 µM,reference: control,remaining activity,74%
"SF3B1 (Homo sapiens, UniProt O75533)","SF3B6 (Homo sapiens, UniProt Q9Y3B4)",cross-linking MS,cell fractions,with: DMTMM,,cross-linked residues,K430 to E65

# Excerpt of the above (set 1):
Change,fold enrichment
VAYPNSYMPKYQHST [I13H],0.906 fold
HAYPNSYMPKYQIST [V1H],9.38 fold
VAYPNSYMPKYQISW [T15W],12.7 fold
